Measurements pooled from the literature.
Numbered parts are unrelated; each lists some results of a single study.

Study 1 — technique: protein binding microarray; molecule type: double-stranded DNA, one strand shown; medium: in vitro; concentration: not given; reference: not given; reading: higher = stronger binding; measurement: E-score
Target: Histone acetyltransferase KAT6A, winged helix 1, GST fusion (KAT6A, Homo sapiens, UniProt Q92794, residues 1-85)
Setting: 8-mer, flanks averaged, mean of 2 arrays, mostly near background
Target sequence (chain): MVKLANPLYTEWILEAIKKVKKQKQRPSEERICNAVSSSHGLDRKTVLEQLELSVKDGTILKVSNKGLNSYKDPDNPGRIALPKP
CTTTGGAA: -0.0993
TACGGTGA: 0.0978
ACCGATAA: -0.0262
ATCGCTTG: 0.096
AATCTTAC: -0.0351
TAGTAGAA: -0.097
AGACAAAC: -0.224
AAGTGTTA: -0.206
CAAAGGTG: -0.0807
CGGCGCCG: 0.473
CGTAGAAC: -0.0178
ACTCTGTG: -0.0546
GAGTGCCA: -0.245
GTTGGAAA: -0.156
CACGCCAC: 0.00012
ACTGCACT: -0.168
TCACGTCA: -0.165
CCTCCCAA: -0.208
AACCGTAG: 0.0691
CGGTCTAC: 0.267
ACTTCACC: 0.00579
AGTCGCCA: -0.167
CGACATAA: 0.0496
CTAGGCAG: -0.151

Study 2 — technique: universal PBM; molecule type: double-stranded DNA, one strand shown; medium: in vitro; concentration: 600 nM; reading: higher = stronger binding; measurement: E-score
Target: Sal-like protein 4, full length isoform A (SALL4, Homo sapiens, UniProt Q9UJQ4, residues 1-1053)
Chain of UniProt Q9UJQ4 (whole entry, looked up): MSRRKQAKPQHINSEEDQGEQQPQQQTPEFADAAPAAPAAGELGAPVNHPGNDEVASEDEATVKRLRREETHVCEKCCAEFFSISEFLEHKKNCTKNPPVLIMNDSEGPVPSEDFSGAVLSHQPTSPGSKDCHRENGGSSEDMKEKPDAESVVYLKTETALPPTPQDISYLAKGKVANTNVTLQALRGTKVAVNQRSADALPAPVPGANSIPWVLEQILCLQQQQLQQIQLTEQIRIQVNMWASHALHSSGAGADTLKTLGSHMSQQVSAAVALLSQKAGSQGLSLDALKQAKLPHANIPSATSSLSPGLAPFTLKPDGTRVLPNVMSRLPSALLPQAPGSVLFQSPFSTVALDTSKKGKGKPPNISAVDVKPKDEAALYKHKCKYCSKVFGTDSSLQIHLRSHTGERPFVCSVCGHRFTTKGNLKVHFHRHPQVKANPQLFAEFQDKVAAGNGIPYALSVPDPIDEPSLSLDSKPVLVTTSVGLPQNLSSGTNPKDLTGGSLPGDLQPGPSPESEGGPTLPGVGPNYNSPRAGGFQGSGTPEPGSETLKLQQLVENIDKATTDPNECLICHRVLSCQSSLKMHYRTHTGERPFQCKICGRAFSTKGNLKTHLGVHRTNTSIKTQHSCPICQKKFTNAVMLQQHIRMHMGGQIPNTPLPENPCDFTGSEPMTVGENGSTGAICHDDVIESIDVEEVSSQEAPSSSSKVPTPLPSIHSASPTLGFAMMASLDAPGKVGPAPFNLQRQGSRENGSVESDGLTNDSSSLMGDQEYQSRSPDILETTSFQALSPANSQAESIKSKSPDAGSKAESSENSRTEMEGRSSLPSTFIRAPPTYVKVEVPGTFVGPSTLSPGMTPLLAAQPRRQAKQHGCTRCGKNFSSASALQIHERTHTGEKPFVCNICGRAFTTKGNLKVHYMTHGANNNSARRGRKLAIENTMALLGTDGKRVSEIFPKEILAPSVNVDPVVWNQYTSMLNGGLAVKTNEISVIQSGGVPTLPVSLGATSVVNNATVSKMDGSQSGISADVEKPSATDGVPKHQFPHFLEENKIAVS
Setting: 8-mer, flanks averaged, mean of replicates
ACAGTGGG: -0.263
TCCCCCGA: -0.3
CCCACAGA: -0.131
TGTACAAA: 0.278
GCACTCGA: -0.204
AGAGTTTC: -0.103
AGATTAAG: 0.209
TCGAAGAA: 0.0185
TAGATGCA: 0.0715
AGCGGTGG: -0.328
ATGATGGG: 0.0221
GGCCGTAA: -0.152
AATTCGTC: 0.0491
ATACGAGG: -0.0713
GGGTGGTA: -0.158
CAATGCAG: -0.0171
CTCAGAGA: -0.158
GACCTCCC: -0.355
CATCGAAC: 0.0394
ATGGGTTG: -0.00721
CAGATGCG: -0.0808
ACCCTTAA: -0.00829
GCCCTTCC: -0.301
GTCCAGTA: -0.0445
CAGTAGAC: 0.0558

Study 3 — technique: RNA Bind-n-Seq; molecule type: RNA; medium: in vitro; concentration: 365 nM; reference: no-protein control; reading: higher = stronger binding; measurement: RBNS enrichment (R)
Target: RNA binding protein fox-1 homolog 2, RRM domain, GST-SBP tag (RBFOX2, Homo sapiens, UniProt O43251-10, residues 100-194)
Setting: natural RNA segment, single round, ends assumed
Constant ends, left off below: GGGAGUUCUACAGUCCGACGAUC … UGGAAUUCUCGGGUGCCAA
Target sequence (chain): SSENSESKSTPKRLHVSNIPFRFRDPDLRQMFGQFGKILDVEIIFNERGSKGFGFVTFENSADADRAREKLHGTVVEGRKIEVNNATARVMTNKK
GAGGCAAGCAGAUCCCUGAGUUUGAGGUAAGCCUGAUUUACAGAGCAAGUUCCAAGACACCAGGCAAUACAGAGAAACCUGCCUCAAGCCAUCUGCUCCCUGAAAAAAGA: 0.472
AUCUUUAAGGCUCAGAUGGGCUCAAAUUGAAACCUUGUGUUUUAUAAAAUGGAUGUUUAGUAAAGGAACUGGUUCUCAGUUAUGUUUACAGCACUUGGAAUUGUGUGUUC: 1.24
CUGUUGGUAUAGCAUUUUCUAAGGAAACUACUCACUCAGCGCCUACCCUUUGUUAGAAGUGUUGACGCUCCAAGCACGCGUGUGAAGCACCAUGUAUCUUGGCCGGUUUC: 2.88
UAUUCAAUCUGCACAAAGUCCAAGGUAUGCUAGGUUCACCAAAGUAGAUUUGCUGGACCUGAUCCCCAAGCACAGGAGUGGUACCCUCCACAGAAGCUGGGGGAGAGUCU: 0.836
GGAAAUGAAUGACUAAUACCAUUAUUUGAGUCUUAUGUGAAGACAACACUAUUCUAACACGAGAGAUAAUAUACAUGGUACUGUUUAUUCAACUGGGGAAAAAUAAAACU: 0.347
UUGGAAACAAAACUAAAAGCAAACUCAACAUAUGUGAUGUUUAUGGCCCUCAGAUCCUUAGUAUUGUGUGAUUUUCCCCCGUUAACAUGUCUUUCUAAAAUUGUCUAUUA: 0.959
GGAGAAUUGAGACUUGGAAAAGGCUUGGGUACAAUUAAGAAAAACCCUACAUCCCACCCUCCUCUUGACGCGUUUCUGGUGGUUUCGGUUUCUGCGUUGCCCUCCAGAUC: 0.235
AUAUGUUUAUGUAUAUAUGUGAUUCUGAUAAAAUAGACAUUGCUAUUCUGUUUUUUAUAUGUAAAAACAAAACAAGAAAAAAUAGAGAAUUCUACAUACUAAAUCUCUCU: 0.455
UGACAACAGGUGUGUACCACCACUCCUGACUUCCCUGCCCAAACUUCAUAUCCUACUUGUUAAUAGCCGUCUUCUCCCUCUGUCAUCUACCCAGAGCAUUCAGCUUGGGA: 1.06
UCAAUUUAAAAGUGAGUGUGGAAGGGAAACGAAAGUCAACAUAUUUUUAAAAGAUCUUAAAAAUAAUGCCUCUGUCUAGCAUGCCAACAAGAAUGCAUUGAUAUUGUGAA: 12.2
GUGUGCGUGUGUUUUGCUCAUUUCUUUAGGGAACUUGGGAGUCGGGGUUGGAGGUGCUGGGCAAUGGAACUUCAAAUUCAAUGUCGCCCAGCAGUGAGGGGAGUCGGGAG: 1.1
ACUGACUGAUAGUAAAACUCAUGGAAGAACUCAAGAGAUGUCGAGACCAAAAGUCCCCAGUGACACCAACACAAAGCUCGCAGUUCCGUUUCCUUCUCGUUCCUAUUCUC: 0.542

Study 4 — technique: protein-binding microarray; molecule type: double-stranded DNA, one strand shown; medium: in vitro; concentration: 250 nM; setting: 60-bp whole probe; with: salmon DNA 0.4 mg/ml; reference: random background probes; reading: higher = stronger binding; measurement: log fluorescence; constant ends, left off below: GCCTAGCAC … GTCTTGATTCGCTTGACGCTGCTG
Target: Interferon regulatory factor 5, full length, phosphomimetic (IRF5, Homo sapiens, UniProt Q13568-2, residues 1-514, K96S/S451D/S453D/S456D/S462D)
CTTTTTATGCTTTCTTTAACTGTGCTA: 1.84 z-score
TTAGTTTTCAGTCTCGATTAGTGCTAG: 4.04 z-score
GACGGTCTCCTTATCCTGGCGTGCTAG: -0.262 z-score
GGGGTTAGGGTCATTCATTCGTGCTAG: -0.368 z-score
GACGGACTTGACTATCGGGACGTGCTA: 1.28 z-score
GACGGTATCGGTTACGGGACGTGCTAG: 6.57 z-score
TCAATGTTCACTATTTAACTGTGCTAG: 0.718 z-score
GACGGACTGGGTTTTGGGACGTGCTAG: -0.158 z-score
TCACTTTTTGCTTTCTTACTGTGCTAG: 2.34 z-score
TCAATTTTCAGTATTACACTGTGCTAG: 2.93 z-score
GACGATTACGGGTTTCGAGACGTGCTA: 1.59 z-score
TTAGTTCTCCTTTTCCTTTAGTGCTAG: 0.896 z-score
TCAGCCATATTTATCTGACTGTGCTAG: 0.0764 z-score
TCCAACCTGCTGAATCAAAAGTGCTAG: 0.22 z-score
TTAGGTCTCGGTATCGGTAAGTGCTAG: 3.74 z-score
GACGGATTCGGTTTCGGGACGTGCTAG: 4.54 z-score
TCAGTTTCTCCTTTCGGACTGTGCTAG: 5.76 z-score
GACGAACTGAGACTGGGGACGTGCTAG: -0.154 z-score
GACGATCTCACTATCGAGACGTGCTAG: 2.53 z-score
TCAGCTTTCCTTCTTGAACTGTGCTAG: 1.02 z-score
GACGAACTGGGGTTGCGAGACGTGCTA: -0.613 z-score
GACGAACTGAGTCTCGAGTCGTGCTAG: 0.124 z-score
GAAGGTTTCGGTATCGGGACGTGCTAG: 9.73 z-score
TAAGGTCTCCTTCTCCTTTAGTGCTAG: 0.0635 z-score

Study 5 — technique: RNA Bind-n-Seq; molecule type: RNA; medium: in vitro; concentration: not given; reference: input RNA pool; reading: higher = stronger binding; measurement: bound/input enrichment
Target: RING finger protein unkempt homolog, zinc fingers 1-6, GST-SBP tag (UNK, Homo sapiens, UniProt Q9C0B0, residues 30-357)
Chain of UniProt Q9C0B0 (30-357, looked up): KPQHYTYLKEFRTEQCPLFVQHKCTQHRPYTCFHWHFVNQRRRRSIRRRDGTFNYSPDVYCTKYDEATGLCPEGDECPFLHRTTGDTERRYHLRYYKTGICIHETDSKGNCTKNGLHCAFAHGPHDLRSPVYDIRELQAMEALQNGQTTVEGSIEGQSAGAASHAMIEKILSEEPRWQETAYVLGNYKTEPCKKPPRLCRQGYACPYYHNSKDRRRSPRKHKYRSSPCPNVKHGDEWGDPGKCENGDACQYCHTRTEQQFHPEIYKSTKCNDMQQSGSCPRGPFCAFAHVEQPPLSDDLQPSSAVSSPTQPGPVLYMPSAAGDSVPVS
Setting: RNA with constant flanks, human and mouse sites, ends assumed
Constant ends, left off below: GGGAGUUCUACAGUCCGACGAUC … CAACAGAGGAUUGAGCAUCA
CUAUCCAGGAUUCAUCCCGUGUCAACAAUGGUAAAGGGGAUGUAUGGCAUUGAGAAUGAAGUCUUCCUGAGCCUUCCAUGUAUCCUCAAUGCCCGGGGAUUAACCAGCGUUAUCAACCAG: 0.111 ratio
GUUUCAGCCGCAGCUGAAUUUGAGAAUGCUGAAUCUGAGGCUGAUUUCAGUAUACAUUUCAAUAGAUUCAACCCCGAUGGGGAAGAGGAAGAUGUUACAGUACAAGAAUGACUUUCUCUU: 0.221 ratio
AUGGAUGUCACUGAGGAUGAAGAGGAAGAAAUCAAACUGGAGAUAAAUAUGCUAAAGAAAUACUCUCAUCACAGAAACAUUGCAACAUAUUAUGGUGCUUUCAUCAAAAAGAGCCCUCCA: 0.182 ratio
UUUCAGAAAUAUAGAGGCCUCAAGAGUUUCCGGACAUCUCCUUGGGAUCCUAAAGAAAACCUUCCUAGAGAUUAUGCUCGGAUAUUUCAGUUUCAGAAUUUUGUUAAUACUAGAAAAAGA: 0.66 ratio
AUAUUUUCACAUGCUUAUUUUCAUCAUCGGCAGAUAUUUGAUGAAUAUGAAAAUGAAACAUUUUUGUGUCAUCGGUUUACUAAGUUUGUGAUGAAAUACAAUUUGAUGUCCAAGGAUAAC: 0.165 ratio
GAAGUAACCAUGGAAACAGACAAGAAAACUCAUUAUGGGCUACUCUUUGAUGAGUUUCAAGGCCUUUCACAUCUAGAAGCUCUGGAGAUGCUUUCCCGAGAAAGUGAGAUAAAGGUGAAA: 0.317 ratio
GAACAUGUUGACAAACUGAAAAUCCCUCCUGAAGAAAUGAAACAAAUGGAACAAAAGUUGAUUAGAGACUUCCAAGAAUAUGUAGAGCCAGGAGAAGACUUCCCGGCUUCUCCCCAGAGA: 0.834 ratio
UUCAGCUCACUGCUCCUUUUCUUUUUUUUCUUUCUCUCCCCCGCCCACCCCCCCAAAAAUAAUUGAUUUGCUUUACAAUCAUCCACACUGUGUUUUGUGGAUCUUUAAUUAUAUAUAACA: 0.962 ratio
GGCCGGCGGCGGCGCGCGGACUCCGCAUCCCGCACCCCGAUGGUAGCCGAGGAGCUGGUGUAAUUACUUCAAGCCUCCAGGAUGGCAAUCCAGUUCCGUUCGCUCUUCCCCUUGGCAUUG: 0.202 ratio
UGCUGCUACAUGAACUUCACAGGGGCCCAAAGCCAUUGUCUGCAUGUGUCUGCCCAGAAGAUGCUAGACAAUGCUGCUUUCACCCUGUAUGAGUUCUGGCAGGAUGAAGCCUCCUGGAGA: 0.0704 ratio
GGAAGUACAAUGAUGGAGAUUGAUGGUGACAAAGGCAAGCAGGGCGGGCCCACCUACUACAUAGACACCAAUGCCCUCCGCGUGCCCAGGGAGAACAUGGAGGCCAUCUCACCACUCAAG: 0.218 ratio

Repeated from above (study 4):
GACGGATTCGGTTTCGGGACGTGCTAG: 4.54 z-score
TCAGTTTCTCCTTTCGGACTGTGCTAG: 5.76 z-score
GACGAACTGAGACTGGGGACGTGCTAG: -0.154 z-score
GACGATCTCACTATCGAGACGTGCTAG: 2.53 z-score
TCAGCTTTCCTTCTTGAACTGTGCTAG: 1.02 z-score
